Published values gathered from unrelated publications.
Protocols differ between the studies behind these lines. ± marks the error that the study gave.
Ache: Acetylcholinesterase (Ache, Mus musculus, UniProt P21836)
rep nsp13 helicase: Replicase polyprotein 1ab, nsp13 helicase (rep, Severe acute respiratory syndrome coronavirus 2, UniProt P0DTD1)

Chains of the proteins cited; added tags and fusions are not shown.
UniProt P21836, whole entry, looked up: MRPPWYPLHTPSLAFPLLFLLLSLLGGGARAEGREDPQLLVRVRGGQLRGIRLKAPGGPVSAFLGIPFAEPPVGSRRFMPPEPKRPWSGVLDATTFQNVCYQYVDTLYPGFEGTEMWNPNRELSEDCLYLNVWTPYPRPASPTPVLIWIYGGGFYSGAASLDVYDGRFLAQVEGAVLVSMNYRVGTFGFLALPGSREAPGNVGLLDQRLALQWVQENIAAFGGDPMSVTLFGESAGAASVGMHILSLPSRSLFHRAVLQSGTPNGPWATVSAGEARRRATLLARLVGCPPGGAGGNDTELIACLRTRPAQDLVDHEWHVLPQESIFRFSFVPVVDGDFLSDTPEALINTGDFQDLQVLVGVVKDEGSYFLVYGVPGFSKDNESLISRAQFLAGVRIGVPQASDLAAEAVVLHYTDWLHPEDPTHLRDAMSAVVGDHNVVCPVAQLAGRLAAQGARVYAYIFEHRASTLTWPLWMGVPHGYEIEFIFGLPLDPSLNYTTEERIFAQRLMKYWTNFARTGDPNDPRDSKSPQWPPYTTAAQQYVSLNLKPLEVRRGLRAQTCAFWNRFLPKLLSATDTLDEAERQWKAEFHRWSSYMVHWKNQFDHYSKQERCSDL
UniProt P35372, whole entry: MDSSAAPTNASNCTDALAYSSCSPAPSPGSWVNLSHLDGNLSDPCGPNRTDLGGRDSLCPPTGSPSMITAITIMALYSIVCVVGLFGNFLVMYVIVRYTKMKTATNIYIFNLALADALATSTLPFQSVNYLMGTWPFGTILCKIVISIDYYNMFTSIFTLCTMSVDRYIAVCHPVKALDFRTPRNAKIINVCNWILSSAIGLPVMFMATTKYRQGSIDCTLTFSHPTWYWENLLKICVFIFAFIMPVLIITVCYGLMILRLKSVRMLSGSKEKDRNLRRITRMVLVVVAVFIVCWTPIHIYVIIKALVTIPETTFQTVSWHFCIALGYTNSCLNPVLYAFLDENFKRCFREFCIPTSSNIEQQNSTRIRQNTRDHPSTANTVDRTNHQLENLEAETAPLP
UniProt P02708, whole entry, looked up: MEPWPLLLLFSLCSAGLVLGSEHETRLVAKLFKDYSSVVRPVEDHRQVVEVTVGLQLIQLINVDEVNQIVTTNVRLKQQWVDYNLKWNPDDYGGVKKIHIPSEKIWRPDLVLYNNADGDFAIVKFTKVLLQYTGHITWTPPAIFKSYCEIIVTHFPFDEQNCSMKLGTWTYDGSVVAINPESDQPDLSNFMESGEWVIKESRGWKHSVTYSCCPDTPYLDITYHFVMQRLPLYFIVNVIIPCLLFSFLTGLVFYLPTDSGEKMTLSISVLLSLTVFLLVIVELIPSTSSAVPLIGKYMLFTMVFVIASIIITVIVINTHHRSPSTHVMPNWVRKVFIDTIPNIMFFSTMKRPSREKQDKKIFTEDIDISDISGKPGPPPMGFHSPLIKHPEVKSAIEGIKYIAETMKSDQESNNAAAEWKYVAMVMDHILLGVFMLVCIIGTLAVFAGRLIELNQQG
UniProt P11230, whole entry, looked up: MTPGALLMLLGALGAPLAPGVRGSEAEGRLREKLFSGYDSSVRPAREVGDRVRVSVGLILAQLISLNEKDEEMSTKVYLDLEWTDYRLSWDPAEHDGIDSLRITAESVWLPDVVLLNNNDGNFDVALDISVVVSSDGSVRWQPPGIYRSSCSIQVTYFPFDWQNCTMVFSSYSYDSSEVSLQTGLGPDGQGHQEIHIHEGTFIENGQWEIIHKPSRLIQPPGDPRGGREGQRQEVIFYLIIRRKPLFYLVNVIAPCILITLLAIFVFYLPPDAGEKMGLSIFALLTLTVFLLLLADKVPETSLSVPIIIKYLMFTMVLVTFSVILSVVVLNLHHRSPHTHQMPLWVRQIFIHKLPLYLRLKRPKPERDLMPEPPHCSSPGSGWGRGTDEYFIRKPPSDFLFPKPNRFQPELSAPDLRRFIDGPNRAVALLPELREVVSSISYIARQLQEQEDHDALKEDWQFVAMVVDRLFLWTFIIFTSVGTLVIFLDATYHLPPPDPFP
UniProt Q04844, whole entry, looked up: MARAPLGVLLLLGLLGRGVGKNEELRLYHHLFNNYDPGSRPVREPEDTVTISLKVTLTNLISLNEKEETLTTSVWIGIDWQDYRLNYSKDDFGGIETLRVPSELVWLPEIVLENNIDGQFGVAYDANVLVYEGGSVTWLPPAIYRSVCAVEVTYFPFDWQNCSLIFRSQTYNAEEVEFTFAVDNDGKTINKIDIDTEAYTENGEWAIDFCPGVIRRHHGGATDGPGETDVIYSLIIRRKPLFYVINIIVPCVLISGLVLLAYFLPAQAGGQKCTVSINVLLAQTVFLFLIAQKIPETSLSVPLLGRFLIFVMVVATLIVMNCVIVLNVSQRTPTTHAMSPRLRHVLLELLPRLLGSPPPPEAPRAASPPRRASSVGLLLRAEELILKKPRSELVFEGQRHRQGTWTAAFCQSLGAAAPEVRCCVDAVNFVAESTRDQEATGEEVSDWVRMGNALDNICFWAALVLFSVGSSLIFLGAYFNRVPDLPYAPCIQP
UniProt Q07001, whole entry, looked up: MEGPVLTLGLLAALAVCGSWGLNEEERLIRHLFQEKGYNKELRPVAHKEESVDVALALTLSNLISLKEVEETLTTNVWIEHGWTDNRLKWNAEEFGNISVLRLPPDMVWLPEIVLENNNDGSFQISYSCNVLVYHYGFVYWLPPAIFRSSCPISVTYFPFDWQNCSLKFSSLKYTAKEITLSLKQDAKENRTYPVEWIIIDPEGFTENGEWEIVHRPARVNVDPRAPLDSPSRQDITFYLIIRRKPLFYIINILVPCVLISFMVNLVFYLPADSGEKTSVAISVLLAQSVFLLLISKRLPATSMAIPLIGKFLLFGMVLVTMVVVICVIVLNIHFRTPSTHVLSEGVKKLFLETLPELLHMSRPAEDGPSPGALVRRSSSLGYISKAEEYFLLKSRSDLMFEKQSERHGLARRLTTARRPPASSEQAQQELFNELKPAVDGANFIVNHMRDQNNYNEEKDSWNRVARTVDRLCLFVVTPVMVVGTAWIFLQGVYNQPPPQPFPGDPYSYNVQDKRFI

O=c1c(O)c(-c2ccc(O)c(O)c2)oc2cc(O)cc(O)c12  inhibition (Replicase polyprotein 1ab, 3C-like proteinase (rep, Severe acute respiratory syndrome-related coronavirus, UniProt P0C6X7); 3CLpro cleavage, luciferase reporter; Vero; concentration not given): no inhibition
CCOP(=S)(OCC)Oc1nc(Cl)c(Cl)cc1Cl  inhibition (Ache; ES1+/+ mice, plasma; transdermal, 100.0 mg/kg, 6.0 h, toxicant challenge): 70.4 ± 6.6%
Cc1cc2c(-c3ccco3)cnc(N[C@@H]3CCN(C)C[C@H]3C(=O)NC3CCCCC3)c2[nH]c1=O  inhibition (Mu-type opioid receptor (OPRM1, Homo sapiens, UniProt P35372); binding, radioligand binding; 10 µM): 27%
CN(C)[C@]1(c2ccccc2)CC[C@]2(CC1)OCCc1c3cc(F)ccc3[nH]c12  inhibition (rep nsp13 helicase; helicase activity, inhibitor; 20 µM): 3%
NC12CC3CC(CC(C3)C1)C2  EC50 (Influenza A virus; viral replication, plaque size reduction; MDCK, A/Swine/Iowa/9-0805/2009 (H1N1)): 36.6 ± 6.7 µM
CNC(=O)Oc1cccc2c1OC(C)(C)C2  inhibition (Ache; ES1+/+ mice, plasma; subcutaneous, 1.0 mg/kg, 0.5 h, toxicant challenge): 52 ± 5.6%
NC(Cc1ccc([N+]([O-])(CCCl)CCCl)cc1)C(=O)O (centres unmarked)  inhibition (Replicase polyprotein 1ab, main protease (rep, Severe acute respiratory syndrome coronavirus 2, UniProt P0DTD1); 20 µM, hit confirmation): 9.1%
CCOP(=O)(OCC)Oc1ccc([N+](=O)[O-])cc1  inhibition (Ache; ES1-/- mice, plasma; subcutaneous, 0.2 mg/kg, 0.5 h, toxicant challenge): 61.4 ± 2.2%
CS(=O)(=O)SCCCNC(=O)CC(CC(=O)O)c1ccc(Cl)cc1Cl (centres unmarked)  inhibition (Botulinum neurotoxin type A, light chain (Clostridium botulinum, UniProt P0DPI0); up to 500 µM): no inhibition
CC[C@H](C)[C@@H]1NC(=O)CNC(=O)[C@H](CC(N)=O)NC(=O)[C@H](CC(N)=O)NC(=O)[C@H](CO)NC(=O)[C@@H]2CSSC[C@@H]3NC(=O)[C@H](CC(N)=O)NC(=O)[C@H]([C@@H](C)O)NC(=O)[C@H](CO)NC(=O)[C@H]([C@@H](C)O)NC(=O)[C@H](Cc4ccccc4)NC(=O)[C@@H]4CSSC[C@H](NC(=O)[C@H](CO)NC(=O)CNC(=O)[C@H](CCC(N)=O)NC3=O)C(=O)N[C@@H](CCC(=O)O)C(=O)N[C@H]3CSSC[C@H](NC(=O)CNC(=O)[C@@H]5CCCN5C(=O)[C@H](CCC(N)=O)NC(=O)[C@H](CCCNC(=N)N)NC1=O)C(=O)N[C@@H](CO)C(=O)N[C@@H](CSSC[C@H](NC(=O)CNC(=O)[C@@H]1C[C@@H](O)CN1C(=O)[C@@H]1C[C@@H](O)CN1C(=O)[C@H](CO)NC(=O)[C@H](CC(C)C)NC3=O)C(=O)N[C@@H](Cc1ccc(O)cc1)C(=O)N2)C(=O)N[C@@H]([C@@H](C)O)C(=O)N[C@H](C(=O)N1CCC[C@H]1C(=O)NCC(=O)N[C@H](C(N)=O)[C@@H](C)O)CSSC[C@H](NC(=O)[C@@H](NC(=O)[C@H](CO)NC(=O)CNC(=O)[C@@H](N)CO)[C@@H](C)O)C(=O)N[C@@H]([C@@H](C)O)C(=O)N4  inhibition (Nicotinic acetylcholine receptor alpha-1/beta-1/delta/epsilon (Homo sapiens, UniProt P02708+P11230+Q04844+Q07001); ion current, antagonist; Xenopus oocytes; 1 µM, together with: acetylcholine 10 µM): < 50%
CN(C(=O)Cc1ccc(Cl)c(Cl)c1)[C@H]1CC[C@@]2(CCCO2)C[C@@H]1N1CCCC1  inhibition (rep nsp13 helicase; helicase activity, inhibitor; 20 µM): 2.17%

A few entries again:
CC[C@H](C)[C@@H]1NC(=O)CNC(=O)[C@H](CC(N)=O)NC(=O)[C@H](CC(N)=O)NC(=O)[C@H](CO)NC(=O)[C@@H]2CSSC[C@@H]3NC(=O)[C@H](CC(N)=O)NC(=O)[C@H]([C@@H](C)O)NC(=O)[C@H](CO)NC(=O)[C@H]([C@@H](C)O)NC(=O)[C@H](Cc4ccccc4)NC(=O)[C@@H]4CSSC[C@H](NC(=O)[C@H](CO)NC(=O)CNC(=O)[C@H](CCC(N)=O)NC3=O)C(=O)N[C@@H](CCC(=O)O)C(=O)N[C@H]3CSSC[C@H](NC(=O)CNC(=O)[C@@H]5CCCN5C(=O)[C@H](CCC(N)=O)NC(=O)[C@H](CCCNC(=N)N)NC1=O)C(=O)N[C@@H](CO)C(=O)N[C@@H](CSSC[C@H](NC(=O)CNC(=O)[C@@H]1C[C@@H](O)CN1C(=O)[C@@H]1C[C@@H](O)CN1C(=O)[C@H](CO)NC(=O)[C@H](CC(C)C)NC3=O)C(=O)N[C@@H](Cc1ccc(O)cc1)C(=O)N2)C(=O)N[C@@H]([C@@H](C)O)C(=O)N[C@H](C(=O)N1CCC[C@H]1C(=O)NCC(=O)N[C@H](C(N)=O)[C@@H](C)O)CSSC[C@H](NC(=O)[C@@H](NC(=O)[C@H](CO)NC(=O)CNC(=O)[C@@H](N)CO)[C@@H](C)O)C(=O)N[C@@H]([C@@H](C)O)C(=O)N4  inhibition (Nicotinic acetylcholine receptor alpha-1/beta-1/delta/epsilon (Homo sapiens, UniProt P02708+P11230+Q04844+Q07001); ion current, antagonist; Xenopus oocytes; 1 µM, together with: acetylcholine 10 µM): < 50%
NC12CC3CC(CC(C3)C1)C2  EC50 (Influenza A virus; viral replication, plaque size reduction; MDCK, A/Swine/Iowa/9-0805/2009 (H1N1)): 36.6 ± 6.7 µM
